Published values gathered from unrelated publications.
Numbers after ± are the reported error.
AGTR1: Type-1 angiotensin II receptor (AGTR1, Homo sapiens, UniProt P30556)
FGFR1: Fibroblast growth factor receptor 1 (FGFR1, Homo sapiens, UniProt P11362)
PPIA: Peptidyl-prolyl cis-trans isomerase A (PPIA, Homo sapiens, UniProt P62937)
TMPRSS11D: Transmembrane protease serine 11D (TMPRSS11D, Homo sapiens, UniProt O60235)
Mycosin-1: Mycosin-1 (Mycolicibacterium thermoresistibile, UniProt G7CDQ2)
TMPRSS2: Transmembrane protease serine 2 (TMPRSS2, Homo sapiens, UniProt O15393)
PTGS2: Prostaglandin G/H synthase 2 (PTGS2, Homo sapiens, UniProt P35354)

Compound | target | assay | test system | conditions | scale | inhibition
CCCCC(C)Sc1nc2c([nH]1)c(=S)n(C)c(=O)n2C (stereo not shown) | Androgen receptor (AR, Homo sapiens, UniProt P10275) | reporter gene | HeLa-A6 | 10 µM, together with: dihydrotestosterone |  | inactive
CC(NC(=O)c1ccccc1N)c1ccccc1 (stereo not shown) | Krev interaction trapped protein 1, FERM domain (KRIT1, Homo sapiens, UniProt O00522) | HEG1-KRIT1 FERM interaction, flow cytometry bead |  | concentration not given |  | no inhibition
CCOC(=O)NS(=O)(=O)c1sc(CC(C)C)cc1-c1ccc2c(c1)CCN(C(=O)C1CC1)C2 | AGTR1 | ligand displacement, radioligand |  | 10 µM, cell membranes |  | 28%
COc1cc2ncc3c(c2cc1-c1cnn(C)c1)n(-c1ccc(C#N)cc1F)c(=O)n3C | CLK2 | kinase activity, inhibitor |  | 1 µM |  | > 50%
OC(c1ccc(OCc2ccccc2)cc1)c1c[nH]c2ncc(C(F)(F)F)cc12 (stereo not shown) | FGFR1 | enzyme activity, inhibitor |  | 0.1 µM |  | -1%
O=C(Nc1ccc(S(=O)(=O)Nc2cnc3ccccc3n2)cc1)c1ccc(Cl)cc1Cl | PPIA | enzyme activity, inhibitor |  | 10 µM |  | 7.5%
CCc1nc2ccc(Cl)cn2c1C(=O)NCc1ccc2oc(-c3ccc(OC(F)(F)F)cc3)nc2c1 | MT-CYB (Bos taurus, UniProt P00157) | complex III activity | bovine heart submitochondrial particles | 10 µM |  | 30%
CCOC(=O)NS(=O)(=O)c1sc(CC(C)C)cc1-c1ccc2c(c1)CCN(S(C)(=O)=O)C2 | AGTR1 | ligand displacement, radioligand |  | 10 µM, cell membranes |  | 19%
CCOc1cccc(C(=O)Nc2ccc(-c3nc4ccccc4[nH]3)cc2)c1 | Heat shock protein HSP 90-beta, N-terminal domain (HSP90AB1, Homo sapiens, UniProt P08238) | binding, fluorescence polarization |  | 10 µM, together with: FITC-geldanamycin |  | no inhibition
CC(C)C1C=C2CCC3C(C)(C(=O)O)CCCC3(C)C2CC1 (stereo not shown) | RPA1 (Homo sapiens, UniProt P27694) | helix destabilization, EMSA dsDNA probe |  | 200 µM |  | no effect
CNC(=O)c1ccccc1Oc1nc(Nc2cc(OC)c(OC)c(OC)c2)ncc1Br | MAP3K11 (Homo sapiens, UniProt Q16584) | enzyme activity, inhibitor |  | 1 µM |  | 30 to 50%
CC(C)c1ccc(C(=O)Nc2ccc(CN)cc2)c(O)c1 | Plasminogen (PLG, Homo sapiens, UniProt P00747) | enzyme activity, inhibitor |  | 10 µM |  | > 70%
FC(F)(F)Oc1cccc(Cc2c[nH]c3ncc(C(F)(F)F)cc23)c1 | FGFR1 | enzyme activity, inhibitor |  | 0.1 µM |  | 15%
CCCCOC(=O)NS(=O)(=O)c1sc(CC(C)C)cc1-c1cc(F)cc(Cn2ccnc2)c1 | AGTR1 | ligand displacement, radioligand |  | 10 µM, cell membranes |  | 13%
COc1cccc(Cc2c[nH]c3ncc(C(F)(F)F)cc23)c1 | FGFR1 | enzyme activity, inhibitor |  | 1 µM |  | 91%
COc1cc2ccc(C(=O)Nc3ccc(CN)cc3)c(O)c2cc1OC | TMPRSS11D | enzyme activity, fluorogenic substrate |  | 10 µM, together with: Boc-VPR-AMC |  | < 20%
CC(=O)c1cnc(N)nc1N1CC[C@H]1c1nn2ccc(Cl)c2c(=O)n1-c1ccccc1 | GABA-A receptor Cl- channel rat | radioligand binding | rat brain cortex homogenate | 10 µM, together with: [3H]TBPS |  | 152%
CCS(=O)(=O)c1ccccc1C(=O)N1CCN(c2nc3ccc(F)cc3s2)C[C@@H]1C | Acid ceramidase (ASAH1, Homo sapiens, UniProt Q13510) | enzyme activity, inhibitor |  | concentration not given |  | no effect
N=C(N)NC(=N)NNc1ccc([N+](=O)[O-])cc1[N+](=O)[O-] | Mycosin-1 | protease activity, inhibitor, quenched fluorescent peptide |  | 150 µM, together with: 20 µM fluorogenic peptide substrate | reference: DMSO control | 55.6%
CC(C)(C)c1ccc(O)c(C(=O)Nc2ccc(CN)cc2)c1 | TMPRSS11D | enzyme activity, fluorogenic substrate |  | 10 µM, together with: Boc-VPR-AMC |  | < 20%
OC(c1cc(F)ccc1F)c1c[nH]c2ncc(C(F)(F)F)cc12 (stereo not shown) | FGFR1 | enzyme activity, inhibitor |  | 0.1 µM |  | 19%
N=C(N)N/N=C1/C=C2C/C(=N\NC(=N)N)C=C2C1 | Mycosin-1 | protease activity, inhibitor, quenched fluorescent peptide |  | 150 µM, together with: 20 µM fluorogenic peptide substrate | reference: DMSO control | 73%
Cc1c(-c2c3c(N)nnc(C)c3nn2-c2ccccc2)oc2ccccc12 | FGFR1 | enzyme activity, inhibitor, ELISA |  | 0.1 µM |  | 31.8%
Cc1ccc([N+](=O)[O-])cc1S(=O)(=O)N(C)/N=C/c1cnc2ccc(Br)cn12 | MAPK13 (Homo sapiens, UniProt O15264) | enzyme activity, inhibitor, radiometric |  | 50 nM |  | 5.4%
FC(F)(F)c1cnc2[nH]cc(Cc3ccc(Cl)c(C(F)(F)F)c3)c2c1 | FGFR1 | enzyme activity, inhibitor |  | 1 µM |  | 16%

Compound | target | assay | test system | conditions | scale | inhibition
NCc1ccc(NC(=O)c2ccc3ccccc3c2O)cc1 | TMPRSS2 | enzyme activity, inhibitor, fluorescence |  | 10 µM |  | 76.8%
COc1cc(Cc2c[nH]c3ncc(C(F)(F)F)cc23)cc(OC)c1 | FGFR1 | enzyme activity, inhibitor |  | 0.1 µM |  | 95%
CCCCOC(=O)NS(=O)(=O)c1sc(CC(C)C)cc1-c1cc(C)cc(Cn2ccnc2)c1 | AGTR1 | ligand displacement, radioligand |  | 10 µM, cell membranes |  | 26%
CCOC(=O)c1c(NC(=O)CCl)sc2c1CCC(c1ccccc1)C2 (stereo not shown) | LDHA (Homo sapiens, UniProt P00338) | enzyme activity, inhibitor, fluorescence |  | 100 µg/mL |  | 46.8%
Cc1ccc(-c2cc(C(=O)Nc3ccc(S(=O)(=O)Nc4ncccn4)cc3)c3ccccc3n2)c(C)c1 | PPIA | enzyme activity, inhibitor |  | 10 µM |  | 10.2%
Oc1c(C(Nc2nc3ccccc3s2)c2ccccc2OCc2ccccc2)ccc2cccnc12 (stereo not shown) | Genome polyprotein, NS2B-NS3 protease (GP1, West Nile virus, UniProt Q9Q6P4) | enzyme activity, inhibitor |  | 25 µM, 0.1% CHAPS, together with: tetrapeptide substrate |  | 83.7 ± 1.31%
N=C(N)SCc1cccc(CSC(=N)N)c1 | TDO2 (Homo sapiens, UniProt P48775) | enzyme activity, inhibitor, biochemical |  | concentration not given |  | inactive
O=C(c1ccncc1)N1N=C2/C(=C/c3ccc(Cl)cc3)CCCC2C1c1ccc(Cl)cc1 (stereo not shown) | PTGS2 | enzyme activity |  | concentration not given |  | 80.2%
COc1ccc(Nc2c(C(N)=O)cnc3c(C)cc(-c4ccc5cnn(C)c5c4)cc23)cc1 | PDEB1 (Trypanosoma brucei, UniProt Q8WQX9) | enzyme activity, inhibitor |  | 10 µM |  | 34%
CCC(CC)c1nc(-c2ccc(O)cc2O)cs1 | Semaphorin-3C, with neuropilin-1 (SEMA3C, Homo sapiens, UniProt Q99985) | SEMA3C binding, inhibitor |  | 25 µM, together with: SEMA3C | reference: DMSO | > 50%
COc1cc(C(=O)NC2CCC(N3CCN(CC4CCC5(CCCC5)C4)CC3)CC2)c(F)cc1Nc1ncc2c(n1)N(C1CCCC1(F)F)CC(F)(F)C(=O)N2C (stereo not shown) | EPHA7 (Homo sapiens, UniProt Q15375) | cell-free assay, TR-FRET |  | 10 µM |  | 0.3%
OC(c1ccc2c(c1)OC(F)(F)O2)c1c[nH]c2ncc(C(F)(F)F)cc12 (stereo not shown) | FGFR1 | enzyme activity, inhibitor |  | 1 µM |  | 11%
NCc1ccc(NC(=O)c2ccc3ccc(Cl)cc3c2O)cc1 | TMPRSS11D | enzyme activity, fluorogenic substrate |  | 10 µM, together with: Boc-VPR-AMC |  | < 20%
O=C(CNc1ccc2ccccc2c1)N/N=C/c1cc(Br)c(O)c(Br)c1 | CFTR (Homo sapiens, UniProt P13569) | apical Cl- current | FRT | 50 µM |  | 98%
CCCC(CCC)C(=O)[O][Pt]([NH2])([NH2])([Cl])([Cl])[O]C(=O)c1ccccc1OC(C)=O | PTGS2 | enzyme activity, COX activity kit | PSN1 | 1 µM, 24 h |  | 4.1%
NCc1ccc(NC(=O)c2ncccc2O)cc1 | TMPRSS2 | enzyme activity, inhibitor |  | 10 µM, together with: Boc-QAR-AMC |  | < 20%
OC(c1cccc(C(F)(F)F)c1)c1c[nH]c2ncc(C(F)(F)F)cc12 (stereo not shown) | FGFR1 | enzyme activity, inhibitor |  | 0.1 µM |  | 22%
Nc1n[nH]c(=O)c2nn(-c3ccccc3)c(-c3cc4ccccc4o3)c12 | FGFR1 | enzyme activity, inhibitor, ELISA |  | 0.1 µM |  | -11.8%
CN(C)S(=O)(=O)c1cc(C(=O)O)ccc1NCCCCCCCC(F)(F)F | SLC12A2 (Homo sapiens, UniProt P55011) | chloride influx | HEK293 transfected with SLC12A2 | 100 µM | reference: DMSO | 95.2 ± 7.6%
CC(C)(C)CCN1C[C@@H]2[C@@H](CNC(=O)c3cc(Cl)cc(Cl)c3)[C@@H]2C1.Cl | Voltage-dependent L-type calcium channel subunit alpha-1F, exon 47 deletion isoform (Homo sapiens, UniProt O60840) | calcium current, whole-cell patch clamp | HEK-293T cells | 50 nM |  | inhibited
NCc1ccc(NC(=O)c2c[nH]c3ccccc3c2=O)cc1 | TMPRSS2 | enzyme activity, inhibitor |  | 10 µM, together with: Boc-QAR-AMC |  | < 20%
CN(C1COC1)C(C)(C)/C=C(\C#N)C(=O)N1CCC[C@H]1Cn1nc(-c2ccc(Oc3ccccc3)cc2F)c2c(N)ncnc21 | BTK (Homo sapiens, UniProt Q06187) |  |  | 0.1 µM, mean |  | > 90%
Cc1ccc(C(=O)Nc2ccc(CN)cc2)c(O)c1 | TMPRSS11D | enzyme activity, inhibitor, fluorescence |  | 10 µM |  | 21.2%
Cc1cc(O)c(C=O)c2c1C(=O)Oc1c(CO)c(O)c3c(c1O2)C(O)OC3=O (stereo not shown) | PDE5A (Homo sapiens, UniProt O76074) | enzyme activity, inhibitor |  | 7.5 µg/mL |  | 73.5%
